Results from different studies.
Each line is one published result; not all experiments were run side by side. ± marks the error that the study gave.
Cell line: Caco-2

Structure (SMILES) | assay | conditions | measurement | result
CCCCCCCCCCCCOC(=O)c1ccc(O)cc1 | – | 5 µM, 60 min, A-B direction | hydrolysed compound | 0.8%
CCCCC(CC)CNC(=N)NC(=N)NCCC (stereo not shown) | – | 5 µM, 2 h, basolateral to apical | recovery | 66.6%
CC1CN(C(C)CO)C(=O)c2cccc(N(C)C(=O)c3ccncc3)c2OC1CN(C)Cc1ccc(Oc2ccccc2)cc1 (stereo not shown) | – | time not given, apical pH 6.5, basolateral pH 7.4 | mass recovery | 74.5 ± 4%
COc1cc(-c2cncc(-c3ccc(N4CCNCC4)cc3)c2C)cc(OC)c1OC | – | 5 µM, 120 min, pH 7.4 | Papp B-A | 8 ×10⁻⁶ cm/s
c1cc2nc(c1)-c1cccc(n1)CCCc1ccc(cc1)OCCCCCCOc1ccc(cc1)CCC2 | cell growth or viability, MTT | 12.5 µM, 48 h | viability | 91.9%
CNC(=O)C[C@H](Cc1ccc(C#N)cc1)NC(=O)c1cc(-c2ccc(CN[C@H](C)c3ccc(C)cc3)o2)ccc1Cl | – | 2 µM | Papp B-A | 6 ×10⁻⁶ cm/s
CCCCCCCCCOC(=O)c1ccc(O)cc1 | – | 5 µM, 60 min, A-B direction | hydrolysed compound | 20.7 ± 3.7%
N#Cc1cccc(-c2ccc(=O)n(Cc3cccc(-c4ncc(OCC5CCN(CC(=O)N6CCN(c7ccc8c(c7)C(=O)N(C7CCC(=O)NC7=O)C8=O)CC6)CC5)cn4)c3)n2)c1 (stereo not shown) | transwell monolayer | 2 µM, 120 min, pH 7.4, 0.1% DMSO, together with: GF120918 10 µM | Papp B-A | 0.01 ± 0.01 ×10⁻⁶ cm/s
CCCCC(CC)CNC(=N)NC(=N)NCCCCCCCCNC(=N)NC(=N)NCC(CC)CCCC (stereo not shown) | – | 5 µM, 2 h, apical to basolateral | recovery | < 22.3%
C[C@@H](CO)NC(=O)c1cc(-c2ccc(Cl)cc2)nn(-c2cnn(C)c2)c1=O | – | 2 µM, 3 h, pH 7.2 | Papp A to B | 25.5 ×10⁻⁶ cm/s
CCC(CC)CNC(=N)NC(=N)NCCCCCCNC(=N)NC(=N)NCC(CC)CC | – | 5 µM, 2 h, apical to basolateral | recovery | 81.3%
CNCc1ccc(-c2cc(=O)c3ccc4[nH]c(C(F)(F)F)nc4c3o2)cc1 | – | – | efflux ratio | 193
CC(C)COC(=O)c1ccc(O)cc1 | – | 5 µM, 60 min, A-B direction | hydrolysed compound | 17.1 ± 2.8%
CC[C@H](C)[C@@H](C(=O)N[C@@H](Cc1ccc(O)cc1)C(=O)N1CCC[C@H]1C(=O)N[C@@H](Cc1ccccc1)C(=O)O)n1cc(C(Cc2ccc(O)cc2)NC(=O)[C@@H](NC(=O)[C@H](CCCNC(=N)N)NC(=O)[C@@H](N)CC(=O)O)C(C)C)nn1 (stereo partly shown) | cell growth or viability, MTT | 50 µM, 48 h | viability | 86.9%
CNC(=N)NC(=N)NCCCCCCNC(=N)NC(=N)NC | – | 5 µM, 2 h, apical to basolateral | recovery | 66.2%
O=C(Oc1ccccc1)c1ccc(O)cc1 | – | 5 µM, 1 h | hydrolysis | 11%

Excerpt of the above:
Structure (SMILES) | assay | conditions | measurement | result
CCCCCCCCCOC(=O)c1ccc(O)cc1 | – | 5 µM, 60 min, A-B direction | hydrolysed compound | 20.7 ± 3.7%
N#Cc1cccc(-c2ccc(=O)n(Cc3cccc(-c4ncc(OCC5CCN(CC(=O)N6CCN(c7ccc8c(c7)C(=O)N(C7CCC(=O)NC7=O)C8=O)CC6)CC5)cn4)c3)n2)c1 (stereo not shown) | transwell monolayer | 2 µM, 120 min, pH 7.4, 0.1% DMSO, together with: GF120918 10 µM | Papp B-A | 0.01 ± 0.01 ×10⁻⁶ cm/s
